Measurements of several laboratories.
Protocols differ between the studies behind these lines. Several values in a cell are separate wells, animals, samples, runs or records. ± gives the spread as reported.
UniProt Q96S38, sequence (whole entry, looked up): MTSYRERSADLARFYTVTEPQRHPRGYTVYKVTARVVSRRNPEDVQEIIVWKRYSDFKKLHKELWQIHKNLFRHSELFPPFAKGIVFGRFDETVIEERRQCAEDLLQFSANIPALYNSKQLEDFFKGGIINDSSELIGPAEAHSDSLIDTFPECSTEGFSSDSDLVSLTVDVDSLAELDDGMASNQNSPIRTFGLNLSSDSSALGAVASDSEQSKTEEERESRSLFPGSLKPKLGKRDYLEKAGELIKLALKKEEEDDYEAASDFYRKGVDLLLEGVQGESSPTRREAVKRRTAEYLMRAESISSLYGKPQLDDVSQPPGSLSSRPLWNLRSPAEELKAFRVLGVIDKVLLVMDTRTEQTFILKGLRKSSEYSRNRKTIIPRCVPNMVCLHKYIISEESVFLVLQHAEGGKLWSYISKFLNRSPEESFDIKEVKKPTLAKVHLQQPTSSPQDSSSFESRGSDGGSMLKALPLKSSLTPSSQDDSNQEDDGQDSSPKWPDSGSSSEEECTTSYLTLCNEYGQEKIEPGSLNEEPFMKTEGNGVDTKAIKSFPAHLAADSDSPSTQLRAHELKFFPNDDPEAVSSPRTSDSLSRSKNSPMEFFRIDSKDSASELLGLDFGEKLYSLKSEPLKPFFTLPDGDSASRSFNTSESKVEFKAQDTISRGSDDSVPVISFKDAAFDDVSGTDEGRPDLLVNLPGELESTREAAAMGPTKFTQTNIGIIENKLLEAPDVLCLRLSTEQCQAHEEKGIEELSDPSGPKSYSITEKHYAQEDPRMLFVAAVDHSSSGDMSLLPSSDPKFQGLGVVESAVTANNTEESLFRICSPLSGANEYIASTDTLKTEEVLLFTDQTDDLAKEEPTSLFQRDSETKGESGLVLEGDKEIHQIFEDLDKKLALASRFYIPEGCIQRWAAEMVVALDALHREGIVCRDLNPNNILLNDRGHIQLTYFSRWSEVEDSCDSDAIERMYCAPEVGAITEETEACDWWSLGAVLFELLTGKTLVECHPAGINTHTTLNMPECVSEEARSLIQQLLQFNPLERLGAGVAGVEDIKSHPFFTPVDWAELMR
UniProt Q4U2R8, sequence (whole entry, looked up): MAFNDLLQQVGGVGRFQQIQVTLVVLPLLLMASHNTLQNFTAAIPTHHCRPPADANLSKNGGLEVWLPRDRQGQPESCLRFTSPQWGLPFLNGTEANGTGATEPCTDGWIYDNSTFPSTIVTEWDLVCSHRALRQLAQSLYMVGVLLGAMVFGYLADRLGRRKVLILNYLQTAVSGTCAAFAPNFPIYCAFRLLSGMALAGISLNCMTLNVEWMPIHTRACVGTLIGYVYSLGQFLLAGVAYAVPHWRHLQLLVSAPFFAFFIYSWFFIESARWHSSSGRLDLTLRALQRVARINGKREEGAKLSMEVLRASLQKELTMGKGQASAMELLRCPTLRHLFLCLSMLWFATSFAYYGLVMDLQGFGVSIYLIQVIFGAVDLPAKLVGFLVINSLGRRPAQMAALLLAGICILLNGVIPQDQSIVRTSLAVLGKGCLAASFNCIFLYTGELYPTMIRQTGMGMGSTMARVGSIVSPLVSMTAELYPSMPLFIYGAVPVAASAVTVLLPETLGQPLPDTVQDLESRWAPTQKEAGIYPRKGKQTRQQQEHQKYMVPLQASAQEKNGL

CN1Cc2cc(Cl)ccc2-n2c(nnc2C2CCN(c3cccc([18F])n3)CC2)C1 — tissue uptake (C57BL/6 mouse male, lung; intravenous, dose not given, 30 min, added: blocking agent 10 mg/kg): 5.82 ± 1.35 %ID/g
O=C1NC2(CC2)COc2ncc(F)cc2[C@H]2COCCN2c2ccn3ncc1c3n2 — mean corpuscular haemoglobin concentration (Sprague-Dawley rat, female, blood; oral, 5 mg/kg/day, 4 weeks, end of treatment, subacute toxicity): 314 ± 5 g/L
CC(=O)N[C@@H](CCCNC(=N)N)C(=O)N[C@@H](CCCCN)C(=O)N[C@@H](CCC(=O)N=S(c1ccc(Cl)cc1)c1ccccc1O)C(=O)N[C@H](C(=O)N[C@@H](Cc1ccc(O)cc1)C(N)=O)C(C)C (stereo partly shown) — hydrolysis (HPLC; 95% FBS in PBS; 0.5 mM, 1 h, pH 7.4, 37 °C): 1%
CC[C@H](C)[C@H](NC(=O)[C@H](CCCCN)NC(=O)CNC(=O)[C@H](CC(C)C)NC(=O)[C@H](Cc1ccccc1)NC(=O)[C@H](CCCCN)NC(=O)[C@H](CO)NC(=O)[C@H](Cc1ccccc1)NC(=O)[C@H](Cc1c[nH]c2ccccc12)NC(=O)[C@H](CCC(N)=O)NC(=O)[C@@H](NC(=O)[C@H](Cc1ccccc1)NC(=O)CCCCCNC(=O)CN1CCN(CC(=O)O)CCN(CC(=O)O)CCN(CC(=O)O)CC1)C(C)C)C(=O)N[C@@H](CCC(=O)O)C(=O)N1CCC[C@H]1C(=O)N[C@H](CC(=O)O)C(=O)N[C@H](C(=O)N[C@@H](CO)C(=O)N[C@@H](CCC(N)=O)C(=O)N[C@H](C(=O)N[C@@H](CCC(N)=O)C(=O)N[C@@H](CC(=O)O)C(=O)N1CCC[C@H]1C(=O)N[C@@H](CC(N)=O)C(=O)N[C@@H](CC(=O)O)C(=O)N[C@@H](CCC(N)=O)C(=O)N[C@@H](Cc1ccc(O)cc1)C(=O)N[C@@H](CCC(=O)O)C(=O)N1CCC[C@H]1C(=O)N[C@@H](Cc1ccccc1)C(=O)O)C(C)C)C(C)C [copper-64 labelled] — tissue uptake (C57BL/6 mice, male, MC-38 tumour-bearing, spleen; 2 h, checkpoint inhibitor-treated): 0.43 ± 0.02 %ID/g
CN(C)[C@H]1C[C@@]23CC[C@@]4(O2)C(=CC[C@]2(C)[C@@H](c5ccc6ccncc6c5)CC[C@H]24)C=C3[C@@H](O)[C@@H]1O — inhibition (RPS6KC1 (Homo sapiens, UniProt Q96S38); ATP probe labelling, inhibitor, KiNativ profiling; 0.1 µM): -2.2%
CS(C)(=O)=Nc1ccc(-c2ccc(-c3nc4cc(O[C@@H]5CO[C@H]6[C@@H]5OC[C@H]6O)[nH]c4cc3F)cc2)cc1 — inhibition (DYRK1A (Homo sapiens, UniProt Q13627); enzyme activity, inhibitor; 10 µM): 16%
CC(=O)N[C@H](C(=O)N[C@@H](CCCC(=O)OC(C)(C)C)C(=O)N[C@@H](CCC1CCCCC1)C(=O)N[C@@H](CC(=O)O)C(=O)COC(=O)c1c(C)cccc1C)C(C)(C)C — concentration (mouse, whole blood; intraperitoneal, dose not given, 3 h): 595 µM
CC(C)C[C@H](NC(=O)CNC(=O)[C@H](CCC(N)=O)NC(=O)[C@H](CC(C)C)NC(=O)[C@H](CC(C)C)NC(=O)[C@H](CCCNC(=N)N)NC(=O)[C@H](CCC(N)=O)NC(=O)[C@H](CC(C)C)NC(=O)[C@H](CCCNC(=N)N)NC(=O)[C@H](C)NC(=O)CNC(=O)[C@H](CCC(=O)O)NC(=O)[C@H](CCCNC(=N)N)NC(=O)[C@H](CC(C)C)NC(=O)[C@H](CCCNC(=N)N)NC(=O)[C@H](CO)NC(=O)[C@H](CC(C)C)NC(=O)[C@H](CCC(=O)O)NC(=O)[C@H](CO)NC(=O)[C@@H](NC(=O)[C@H](Cc1ccccc1)NC(=O)[C@@H](NC(=O)CNC(=O)[C@H](CC(=O)O)NC(=O)C(C)(C)NC(=O)[C@@H](N)Cc1c[nH]cn1)[C@@H](C)O)[C@@H](C)O)C(=O)N[C@@H](CC(C)C)C(=O)N[C@@H](CCC(N)=O)C(=O)NCC(=O)N[C@@H](CC(C)C)C(=O)N[C@H](C(=O)NCC(=O)N[C@@H](CCCCNC(=O)COCCOCCNC(=O)COCCOCCNC(=O)CC[C@H](NC(=O)CCCCCCCCCCCCCCCCC(=O)O)C(=O)O)C(N)=O)C(C)C — pancreas weight increase (DIO C57BL/6J mice; sc, 300 nmol/kg twice daily, 8 days, not significant): 36%
O=C(O)c1ccc(-c2nc(-c3ccccc3Cl)c3sccn23)cc1 — leukocyte recovery (C57BL/6 mouse 5-FU stress; dose not given): no effect
C[C@H](NC(=O)[C@H](CCCNC(=N)N)NC(=O)[C@H](CCCNC(=N)N)NC(=O)[C@H](CO)NC(=O)[C@H](CO)NC(=O)[C@H](CO)NC(=O)CNC(=O)[C@H](Cc1ccc(O)cc1)NC(=O)CNC(=O)CNC(=O)[C@H](Cc1ccccc1)NC(=O)[C@H](Cc1ccccc1)NC(=O)Cc1ccc2ccccc2c1)C(=O)N1CCC[C@H]1C(=O)N[C@@H](CCC(N)=O)C(=O)N[C@H](C(=O)O)[C@@H](C)O — time to peak brain accumulation (IVIS imaging; mouse, non-injured, brain; intravenous, tail vein, 1 µmol/kg, Cy5.5-conjugated): 4 h
CCCCCCCCCCCC(=O)C(C)C(=O)N1CCC[C@H]1C(=O)NC(C)(C)C(=O)NC(C)(C)C(=O)NC(C)(C)C(=O)N[C@](C)(CC)C(=O)NCCC(=O)N[C@@H](C)C(=O)N[C@](C)(CC)C(=O)N[C@@H](C)C(=O)N[C@@H](CC(C)C)C(=O)N[C@](C)(CC)C(=O)NCCC(=O)N[C@@H](C)C(=O)N[C@](C)(CC)C(=O)NCCC(=O)N[C@@H](C)C(=O)NC(C)(C)C(=O)NC(C)(C)C(=O)NC(C)(C)C(=O)N[C@@H](C)C(=O)N[C@@H](CC(=O)O)C(=O)O (stereo partly shown) — remaining intact peptide (LC-MS; 50% pooled human serum; 40 µM, 20 min, pH 7.5, 37 °C; reference: 0 h): 72.7% and 66.2% and 65.8%
CCc1nn(C)c2nc(-c3ccc(C(=O)O)cc3)nc(NCc3ccccc3)c12 — concentration (male CD-1 mouse, plasma; oral, 10 mg/kg, 30 min): 1430 ng/mL
COc1ccccc1-c1n[nH]c2nc(NC3CCN(C(=O)Cc4ccc(F)cc4F)CC3)ncc12 — relative abundance (bead binding, competition bead pull-down, refers to: LINJ.35.1230; Leishmania donovani extract; 10 µM; reference: vehicle): 1.06
Cc1nc2cccc(OCC(C)(C)C(=O)NC(C)C)c2c(N)c1C(=O)[O-].[Na+] — revertant colonies per plate (Salmonella typhimurium; TA98; 0.32 mg per plate, without S9, preincubation): 26 ± 2
C/C(=N\OCCCN1CCCCC1)c1ccc(C(F)(F)F)cc1 — Cmax (mouse, plasma; oral, 75 mg/kg twice daily, day 7): 982 ± 216 ng/mL
CC(C)[C@@H]1NC(=O)CNC(=O)[C@H](CC(N)=O)NC(=O)[C@H](CCCNC(=N)N)NC(=O)[C@H](Cc2ccc(O)cc2)NC(=O)[C@H](C(C)C)NC(=O)[C@@H](NC(=O)[C@@H](NC(=O)[C@H](CC(N)=O)NC(=O)[C@H](Cc2c[nH]c3ccccc23)NC(=O)[C@H](C)NC(=O)[C@H](Cc2ccccc2)NC(=O)CNC(=O)[C@H](CCCCN)NC(=O)[C@H](Cc2ccccc2)NC(=O)[C@H](Cc2ccccc2)NC(=O)[C@H](CCCCN)NC(=O)OCC2c3ccccc3-c3ccccc32)C(C)C)CSSC[C@@H](C(=O)N[C@@H](Cc2c[nH]cn2)C(=O)N[C@@H](CCCNC(=N)N)C(=O)N[C@@H](CCCNC(=N)N)C(=O)N[C@@H](C)C(=O)N[C@@H](CC(N)=O)C(N)=O)NC(=O)[C@H](C(C)C)NC(=O)[C@H](CCCNC(=N)N)NC1=O — AST/ALT ratio (ICR mice, serum; intraperitoneal, 10 mg/kg, day 5; reference: AST over ALT): 0.58 ± 0.03
CC(C)(C)C(=O)OCOP(=O)(OCOC(=O)C(C)(C)C)C1CCCN(O)C1=O (stereo not shown) — log LC50 (M14): -4.2 log M
Cc1nc(N2CCC(N(C)c3cc(C(=O)NCCN4CCCC4)cnn3)CC2)nc(C)c1CC(C)C — AUC(0-last) (female hamster; oral, 100 mg/kg): 54600 ng·h/mL
CC(=O)NCCCC[C@@H]1NC(=O)[C@H](Cc2c[nH]c3c(C)cccc23)NC(=O)[C@H]([C@@H](C)O)NC(=O)[C@H](CC(N)=O)NC(=O)[C@@H](NC(C)=O)C(C)(C)SSC(C)(C)[C@@H](C(=O)N[C@@H](Cc2ccc(OCCN)cc2)C(=O)N[C@@H](Cc2ccc3ccccc3c2)C(=O)NC2(C(=O)N[C@@H](CCC(=O)O)C(=O)N[C@@H](CC(N)=O)C(=O)N[C@@H](Cc3cccnc3)C(=O)N(C)CC(N)=O)CCOCC2)NC1=O — uptake rate (SLC22A6 (Homo sapiens, UniProt Q4U2R8); substrate; HEK293 overexpressing transporter; 5 µM, 30 min, added: 300 µM probenecid): 0.186 ± 0.013 pmol/mg/min

Repeated from above:
Cc1nc(N2CCC(N(C)c3cc(C(=O)NCCN4CCCC4)cnn3)CC2)nc(C)c1CC(C)C — AUC(0-last) (female hamster; oral, 100 mg/kg): 54600 ng·h/mL
C[C@H](NC(=O)[C@H](CCCNC(=N)N)NC(=O)[C@H](CCCNC(=N)N)NC(=O)[C@H](CO)NC(=O)[C@H](CO)NC(=O)[C@H](CO)NC(=O)CNC(=O)[C@H](Cc1ccc(O)cc1)NC(=O)CNC(=O)CNC(=O)[C@H](Cc1ccccc1)NC(=O)[C@H](Cc1ccccc1)NC(=O)Cc1ccc2ccccc2c1)C(=O)N1CCC[C@H]1C(=O)N[C@@H](CCC(N)=O)C(=O)N[C@H](C(=O)O)[C@@H](C)O — time to peak brain accumulation (IVIS imaging; mouse, non-injured, brain; intravenous, tail vein, 1 µmol/kg, Cy5.5-conjugated): 4 h
